# Results pooled from the literature.
# Numbered parts are unrelated; each lists some results of a single study. Changes are numbered by the printed parent chain.

# Study 1
# Target: Prothrombin, mature alpha-thrombin (F2, Homo sapiens, UniProt P00734)
# Method: aptamer microarray, sandwich
# Form: DNA with 2'F-ANA
# Medium: in vitro
# Concentration: 200 nM
# Notes: whole 15-mer aptamer, many near background
# With: Cy3 exosite-II aptamer, 400 nM
# Direction: higher = stronger binding
# Strand: GGTTGGTGTGGTTGG
Modification,mean fluorescence intensity [a.u.]
2'F-ANA at 2 4 5 6 7 8 10 11 13,55.8
2'F-ANA at 3 4 5 6 7 8 10 11 12,57.2
2'F-ANA at 1 3 7 8 12 14 15,171
2'F-ANA at 2 3 8 13 15,691
2'F-ANA at 3 4 5 6 8 10 11 12 13,65.5
2'F-ANA at 1 2 3 7 8 10 11 12 13,87.3
2'F-ANA at 2 5 7 8 9 10 12 13 14,47.1
2'F-ANA at 3 7 10 13 15,576
2'F-ANA at 3 4 5 11 14 15,53.5
2'F-ANA at 3 4 5 6 7 9 10 12 14,50.1
2'F-ANA at 1 2 3 7 8 9 12,453
2'F-ANA at 4 6 9 12,537
2'F-ANA at 2 4 7 8 9 12 13 15,424
2'F-ANA at 2 5 6 9 10 13 14 15,47.7
2'F-ANA at 4 6 7 8 10 12 15,105
2'F-ANA at 1 3 6 7 11 12 13,353
2'F-ANA at 1 3 4 13 14,66.4
2'F-ANA at 2 6 7 10 13 15,105
2'F-ANA at 2 7 8 9 11 12 13 14 15,177
2'F-ANA at 2 3 5 6 7 8 10 13 15,55.9

# Study 2
# Target: ATF2, bZIP domain (human)
# Method: DHFR protein complementation
# Medium: yeast
# Notes: single substitutions, most at no-binding floor
# Relative to: wild-type JUN-FOS pair
# Direction: higher = stronger binding
# Parent: JUN, bZIP domain (human); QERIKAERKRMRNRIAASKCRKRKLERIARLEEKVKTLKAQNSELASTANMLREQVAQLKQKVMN; partner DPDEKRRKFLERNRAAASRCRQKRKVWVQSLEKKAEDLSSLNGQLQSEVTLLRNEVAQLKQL
Change,binding fitness
R53Q,-1.55 natural log
A49Y,-1.48 natural log
S43G,-1.38 natural log
L45G,-1.51 natural log
K39M,-1.32 natural log
K34C,-1.57 natural log
E54P,-1.54 natural log
V56C,-1.47 natural log
A40M,-1.41 natural log
K36N,-1.49 natural log
L31K,-1.54 natural log
A57N,-1.45 natural log
Q41R,-1.43 natural log
S43D,-1.32 natural log
R30T,-1.27 natural log
I28S,-1.49 natural log
K34Y,-1.21 natural log
A49T,-1.53 natural log
M51A,-1.44 natural log

# Study 3
# Target: UBE2V2 UBC core domain (UniProt Q15819)
# Sequence of UniProt Q15819 (whole entry, looked up): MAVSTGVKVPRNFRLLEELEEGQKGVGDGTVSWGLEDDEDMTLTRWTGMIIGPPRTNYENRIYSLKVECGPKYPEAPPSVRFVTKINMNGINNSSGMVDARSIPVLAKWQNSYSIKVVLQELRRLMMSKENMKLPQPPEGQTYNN
# Method: yeast two-hybrid
# Medium: yeast
# Notes: mostly zero background
# Relative to: not given
# Direction: higher = stronger interaction
# B1: DEF8 RING domain (UniProt Q6ZN54); chain AGRLGCSLTEIHTLFAKHIKLDCERCQAKGFVCELCREGDVLFPFDSHTSVCADCSAVFHRDCYYDNSTTCPKCARLSLRK
# B2: MKRN2 RING domain (UniProt Q9H000); chain FAFQASQDKVCSICMEVILEKASASERRFGILSNCNHTYCLSCIRQWRCAKQFENPIIKSCPECRVISEFVIPSV
# B3: RNF122 RING domain (UniProt Q9H9V4); chain AKKLQLYGQTCAVCLEDFKGKDELGVLPCQHAFHRKCLVKWLEVRCVCPMCNKPIASPSEAT
# B4: RNF166 RING domain (UniProt Q96A37); chain GDSGLEAQYTCPICLEVYHRPVAIGSCGHTFCGECLQPCLQVPSPLCPLCRLPFDPKKVDK
# B5: TRIM37 RING domain (UniProt O94972); chain SVESIAEVFRCFICMEKLRDARLCPHCSKLCCFSCIRRWLTEQRAQCPHCRAPLQLRELVN
# B6: RNF152 RING domain (UniProt Q8N8N0); chain ETLSQDSLLECQICFNYYSPRRRPKLLDCKHTCCSVCLQQMRTSQKDVRCPWCRGVTKLPPGFS
# B7: TRIM54 RING domain (UniProt Q9BYV2); chain SMDNLEKQLICPICLEMFSKPVVILPCQHNLCRKCANDVFQASNPLWQSRGSTTVSSGGRFRCPSCRHEVVLDRHGV
# B8: MYCBP2 RING domain (UniProt O75592); chain TSLKQDADDMCMICFTEALSAAPAIQLDCSHIFHLQCCRRVLENRWLGPRITFGFISCPICKNKINHIVLKD
# B9: TRIM60 RING domain (UniProt Q495X7); chain ALVNLQEESSCPICLEYLKDPVTINCGHNFCRSCLSVSWKDLDDTFPCPVCRFCFPYKSFRR
# B10: RNF31 RING domain (UniProt Q96EP0); chain AFLRRLLAQECAVCGWALPHNRMQALTSCECTICPDCFRQHFTIALKEKHITDMVCPACGRPDLTDDTQLL
Sequence,lacZ reporter activity
B1 (DEF8 RING domain),0
B2 (MKRN2 RING domain),0
B3 (RNF122 RING domain),0
MNDVLENELQCIICSEYFIEAVTLNCAHSFCSYCINEWMKRKIECPICRKDIKSKTYSL (RNF8 RING domain (UniProt O76064)),0
B4 (RNF166 RING domain),0
B5 (TRIM37 RING domain),0
YPEEVDDDLICHICLQALLDPLDTPCGHTYCTLCLTNFLVEKDFCPMDRKPLVLQHCKK (LNX1 RING domain (UniProt Q8TBB1)),0
B6 (RNF152 RING domain),0
RYRQMEERITCPICIDSHIRLVFQCGHGACAPCGSALSACPICRQPIRDRIQIF (MIB2 RING domain (UniProt Q96AX9)),0
B7 (TRIM54 RING domain),0
B8 (MYCBP2 RING domain),0
B9 (TRIM60 RING domain),0
YCEMGSTFQLCKICAENDKDVKIEPCGHLMCTSCLTAWQESDGQGCPFCRCEIKGTEPII (CBLB RING domain (UniProt Q13191)),0
LDAASGHPLVCPLCHGQYERPCLLDCFHDFCTGCLRGRATDGRLSCPLCQHQTLVKGPSG (Rnf207 RING domain (UniProt Q3V3A7)),0
B10 (RNF31 RING domain),0

# Study 4
# Target: CCNA2, cyclin fold, Cln2 fusion (human)
# Method: yeast growth competition, sequencing
# Medium: yeast
# Notes: strong parent motif
# Relative to: not given
# Direction: higher = stronger binding
# Parent: E2F1 docking peptide (human); PPVKRRLDFETDH; partner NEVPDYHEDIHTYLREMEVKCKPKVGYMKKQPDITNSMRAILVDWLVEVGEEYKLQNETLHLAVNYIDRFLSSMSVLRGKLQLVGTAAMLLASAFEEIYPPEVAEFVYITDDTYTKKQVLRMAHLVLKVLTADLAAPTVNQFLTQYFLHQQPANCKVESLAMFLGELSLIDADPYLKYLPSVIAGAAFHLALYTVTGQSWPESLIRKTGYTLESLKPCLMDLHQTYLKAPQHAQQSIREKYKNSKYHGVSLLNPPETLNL
Change,normalised enrichment score
E10I,6.1
P2N,6.28
E10K,6.02
V3P,6.15
D8P,5.71
E10A,6.21
R5D,0.0527
R6E,4.68
V3S,6.14
V3E,0.717
T11S,6.01
T11L,5.73
R5Y,1.05
R6Q,5.61
P2A,6.19
E10H,6.62
R5L,2.42
D8H,6.08
R5S,0.662

# For quick reference, copied from above (study 3):
Sequence,lacZ reporter activity
YCEMGSTFQLCKICAENDKDVKIEPCGHLMCTSCLTAWQESDGQGCPFCRCEIKGTEPII (CBLB RING domain (UniProt Q13191)),0
B6 (RNF152 RING domain),0
B10 (RNF31 RING domain),0
MNDVLENELQCIICSEYFIEAVTLNCAHSFCSYCINEWMKRKIECPICRKDIKSKTYSL (RNF8 RING domain (UniProt O76064)),0
B9 (TRIM60 RING domain),0
RYRQMEERITCPICIDSHIRLVFQCGHGACAPCGSALSACPICRQPIRDRIQIF (MIB2 RING domain (UniProt Q96AX9)),0
B7 (TRIM54 RING domain),0
B8 (MYCBP2 RING domain),0
B2 (MKRN2 RING domain),0
